# Assay results of several laboratories.
# Numbers after ± are the reported error.
# Chain of UniProt Q08345 (whole entry, looked up): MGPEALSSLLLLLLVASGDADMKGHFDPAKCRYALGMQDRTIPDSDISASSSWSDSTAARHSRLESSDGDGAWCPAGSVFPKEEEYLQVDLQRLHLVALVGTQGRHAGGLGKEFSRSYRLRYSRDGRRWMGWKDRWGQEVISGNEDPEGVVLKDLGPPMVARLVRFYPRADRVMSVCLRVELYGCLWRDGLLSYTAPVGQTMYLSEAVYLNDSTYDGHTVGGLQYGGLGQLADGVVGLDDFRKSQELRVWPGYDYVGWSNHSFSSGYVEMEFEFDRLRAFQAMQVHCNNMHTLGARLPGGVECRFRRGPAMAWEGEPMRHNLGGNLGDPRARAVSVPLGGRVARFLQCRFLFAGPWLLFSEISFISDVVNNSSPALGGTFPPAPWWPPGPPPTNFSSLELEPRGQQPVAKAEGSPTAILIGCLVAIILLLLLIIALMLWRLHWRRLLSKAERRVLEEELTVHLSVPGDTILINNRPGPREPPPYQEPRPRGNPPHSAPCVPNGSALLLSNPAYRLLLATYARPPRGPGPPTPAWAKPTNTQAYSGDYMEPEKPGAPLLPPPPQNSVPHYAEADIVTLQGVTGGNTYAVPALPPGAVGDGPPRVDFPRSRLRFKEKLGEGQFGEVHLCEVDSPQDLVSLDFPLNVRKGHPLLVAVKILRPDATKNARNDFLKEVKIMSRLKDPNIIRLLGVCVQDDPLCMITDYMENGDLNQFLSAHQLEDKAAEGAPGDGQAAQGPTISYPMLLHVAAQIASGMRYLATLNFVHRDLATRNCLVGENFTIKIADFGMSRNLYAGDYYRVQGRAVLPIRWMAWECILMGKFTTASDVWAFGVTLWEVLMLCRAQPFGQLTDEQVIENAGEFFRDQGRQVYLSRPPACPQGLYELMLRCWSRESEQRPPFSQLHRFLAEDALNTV
Compound,target or system,assay,system,setting,how to read,quantity,result
CN1CCN(c2ccc(Nc3nccc(-c4ccnc(NCc5ccccc5)c4)n3)cc2C(F)(F)F)CC1,,,zebrafish embryos,"25 µM, 5 d",,toxicity,0 ± 15%
N[C@@H]1c2ccccc2OC12CCN(c1cnc3c(N4CCCc5ncccc54)n[nH]c3n1)CC2,,,patients advanced metastatic solid tumours,"oral, 60 mg once daily, pooled cohort",,decreased appetite TRAE incidence,12%
CC(C)(C)[C@]1(O)CCN2C[C@H]3c4ccccc4CCc4cccc(c43)[C@@H]2C1,Plasmodium falciparum,,HB3,,,IC50,5.01 µM
O=S(=O)(Nc1ccccc1)c1ccc(NC(=S)Nc2ccccc2)cc1,,,"mouse, male, spleen","oral, 5 mg/kg daily, 14 days",reference: body weight,relative organ weight,0.34%
C=CC(=O)Nc1cc(Nc2nccc(Nc3cc(Cl)c(F)cc3C(C)(C)O)n2)c(OC)cc1N1CC[C@@H](N(C)C)C1,,,human,"oral, dose not given",,lipase increased TEAE,12.7%
Cc1cn([C@H]2O[C@@H](CO[P@@](=O)(N[C@@H](C)C(=O)OC(C)C)Oc3ccccc3)[C@H](O)[C@H]2F)c(=O)[nH]c1=O,,refers to: blood CPK increased,human,50 mg,,patients with TEAE,0%
CC(C)CC(=O)OC[C@H]1O[C@@](C#N)(c2ccc3c(N)ncnn23)[C@H](O)[C@@H]1O,,,"Sprague-Dawley rat, female, bile","80 mg/kg, time not given",reference: dose,recovery in bile,2.08e-06%
COc1cccc2c1CCCC2CCCN1CCN(C2CCCCC2)CC1 (stereo not shown),,,"CD-1 mouse, male, plasma","intraperitoneal, 1 mg/kg",,AUC(0-t),54.3 ng·h/mL
COc1ccnc(C(=O)N[C@H]2COC(=O)[C@H](Cc3ccccc3)[C@@H](OC(=O)C(C)C)[C@H](C)OC2=O)c1OCOC(=O)C(C)C,,,bovine milk,-18 °C,,storage stability of residues,9 months
C[C@H]1CN(c2n[nH]c3nc(N[C@H]4CC[C@H](NS(=O)(=O)CCC(F)(F)F)CC4)ncc23)CCO1,"DDR1 (Homo sapiens, UniProt Q08345)","inhibitor, Kinobeads competition profiling",,20 µM,reference: vehicle,relative abundance,1.08
Clc1ccc(-c2ccc(Cl)c(Cl)c2)c(Cl)c1,,,fresh water,"20 °C, S30-2 sampler, 30 µm",,log K(PDMS-water),5.71 ± 0.02
COc1cc2c(Oc3ccc4[nH]c(C)cc4c3F)ccnc2cc1OCC1(N)CC1,,,paediatric recurrent refractory sarcoma,12 mg,,Hypothyroidism incidence,54.5%
NCCCC[C@@H]1NC(=O)[C@@H](Cc2c[nH]c3ccccc23)NC(=O)[C@H](c2ccccc2)NC(=O)[C@@H]2C[C@@H](OC(=O)NCCN)CN2C(=O)[C@H](Cc2ccccc2)NC(=O)[C@H](Cc2ccc(OCc3ccccc3)cc2)NC1=O,,,healthy volunteers,"subcutaneous, 600 µg twice daily, day 5, 1.50 h",,QTcI change from baseline,8.5 ms
Clc1cc(Cl)c(-c2c(Cl)c(Cl)cc(Cl)c2Cl)cc1Cl,,,polyethylene-water partitioning,PCB compilation,reference: maximum over minimum K,literature range factor,1.2
C[C@@H](NC(=O)N1C(=O)[C@H](Cc2ccnc(N)c2)[C@H]1C(=O)O)C1CCCCC1,,,healthy Chinese adults,"continuous intravenous infusion, 0.3 mg/kg/h, 5.0 days",,decreased WBC,25%
CC(C)C[C@@H]1NC(=O)CNC(=O)[C@H](CC(N)=O)NC(=O)[C@H](CCCNC(=N)N)NC(=O)[C@H]([C@@H](C)O)NC(=O)[C@@H]2CSSC[C@@H]3NC(=O)[C@H]([C@@H](C)O)NC(=O)CNC(=O)[C@H](CCCCN)NC(=O)[C@H](C(C)C)NC(=O)[C@@H]4CSSC[C@H](NC(=O)[C@H]([C@@H](C)O)NC(=O)[C@H](CSSC[C@H](NC(=O)[C@H](C(C)C)NC(=O)[C@@H]5CCCN5C1=O)C(=O)NCC(=O)N[C@@H](CCC(=O)O)C(=O)N[C@@H]([C@@H](C)O)C(=O)N4)NC(=O)CNC(=O)[C@@H]1CCCN1C(=O)[C@H]([C@@H](C)O)NC(=O)[C@H](CC(N)=O)NC3=O)C(=O)N[C@@H](CO)C(=O)N[C@@H](Cc1c[nH]c3ccccc13)C(=O)N1CCC[C@H]1C(=O)N[C@@H](C(C)C)C(=O)N2,,HPLC,ammonium bicarbonate 0.1 M,"180 µM, 7 days, pH 9.0, 37 °C, deamidation stability",,remaining peptide,83 ± 3.2%
Clc1ccc(-c2cc(Cl)c(Cl)c(Cl)c2Cl)cc1Cl,,,fresh water,"20 °C, S30-2 sampler, 30 µm",,log K(PDMS-water),6.38 ± 0.06
CC(C)C[C@H](NC(=O)[C@H](CCCCN)NC(=O)OCC1c2ccccc2-c2ccccc21)C(=O)N[C@H](C(=O)N[C@@H](Cc1ccccc1)C(=O)N[C@@H](Cc1ccccc1)C(=O)N[C@@H](CCCCN)C(=O)NCC(=O)N[C@@H](Cc1ccccc1)C(=O)N[C@@H](C)C(=O)N[C@@H](Cc1c[nH]c2ccccc12)C(=O)N[C@@H](CC(N)=O)C(=O)N[C@H](C(=O)N[C@H]1CSSC[C@@H](C(=O)N[C@@H](Cc2c[nH]cn2)C(=O)N[C@@H](CCCNC(=N)N)C(=O)N[C@@H](CCCNC(=N)N)C(=O)N[C@@H](C)C(=O)N[C@@H](CC(N)=O)C(N)=O)NC(=O)[C@H](C(C)C)NC(=O)[C@H](CCCNC(=N)N)NC(=O)[C@H](C(C)C)NC(=O)CNC(=O)[C@H](CC(N)=O)NC(=O)[C@H](CCCNC(=N)N)NC(=O)[C@H](Cc2ccc(O)cc2)NC(=O)[C@H](C(C)C)NC1=O)C(C)C)C(C)C,,,"ICR mice, blood","intraperitoneal, 10 mg/kg, day 5",,eosinophils,2.44 ± 0.26%
CN[C@H]1CC[C@@H](c2ccc(Cl)c(Cl)c2)c2ccccc21,,,"CD-1 mouse, male, lung","intraperitoneal, 1 mg/kg",,Tmax,1 h
C[C@]1(O)C[C@@](N)(c2ccc(-c3nc4n(c3-c3ccccc3)COc3ccncc3-4)cc2)C1,,,"human, advanced or metastatic solid tumours","28 mg intermittent, phase I dose escalation",,patients with Hyperglycemia TEAE,66.7%
O=C(O)CCC(CP(=O)(O)O)C(=O)O (stereo not shown),,,"rat, processed derivatized plasma","8 µg/mL, 18 h, 10 °C, autosampler stability",reference: nominal concentration,relative error,0.8%
CN(C(=O)n1cnc(-c2ccc[n+]([O-])c2)c1)C1CCCCC1,,,"Wistar rat, hippocampus","oral, 10 mg/kg, 4 h, single dose",,concentration,125 ± 38.8 ng/g
CC[C@H](C)[C@H](NC(=O)[C@H](Cc1ccccc1)NC(=O)[C@H](CCC(=O)O)NC(=O)[C@H](CCCNC(=N)N)NC(=O)[C@H](C)NC(=O)[C@H](C)NC(=O)[C@H](CCC(N)=O)NC(=O)[C@H](CCC(=O)O)NC(=O)[C@H](CCC(=O)O)NC(=O)[C@H](CC(C)C)NC(=O)[C@H](Cc1ccc(O)cc1)NC(=O)[C@H](CO)NC(=O)[C@H](CO)NC(=O)[C@@H](NC(=O)[C@H](CC(=O)O)NC(=O)[C@H](CO)NC(=O)[C@@H](NC(=O)[C@H](Cc1ccccc1)NC(=O)[C@@H](NC(=O)CNC(=O)[C@H](CCC(=O)O)NC(=O)[C@H](C)NC(=O)CCc1cnc[nH]1)[C@@H](C)O)[C@@H](C)O)C(C)C)C(=O)N[C@@H](C)C(=O)N[C@@H](Cc1c[nH]c2ccccc12)C(=O)N[C@@H](CC(C)C)C(=O)N[C@H](C(=O)N[C@@H](CCCNC(=N)N)C(=O)NCC(=O)N[C@@H](CCCNC(=N)N)C(=O)N[C@@H](CCCCNC(=O)COCCOCCNC(=O)COCCOCCNC(=O)CC[C@H](NC(=O)CCCCCCCCCCCCCCCCC(=O)O)C(=O)O)C(=O)NCC(=O)NCC(=O)N[C@@H](CO)C(=O)N[C@@H](CCCCNC(=O)[C@H](CCCCNC(=O)[C@H](CCCCNc1c(NCCCCCN(O)C(=O)CCC(=O)NCCCCCN(O)C(=O)CCC(=O)NCCCCCN(O)C(C)=O)c(=O)c1=O)Nc1c(NCCCCCN(O)C(=O)CCC(=O)NCCCCCN(O)C(=O)CCC(=O)NCCCCCN(O)C(C)=O)c(=O)c1=O)NC(=O)[C@H](CCCCNc1c(NCCCCCN(O)C(=O)CCC(=O)NCCCCCN(O)C(=O)CCC(=O)NCCCCCN(O)C(C)=O)c(=O)c1=O)Nc1c(NCCCCCN(O)C(=O)CCC(=O)NCCCCCN(O)C(=O)CCC(=O)NCCCCCN(O)C(C)=O)c(=O)c1=O)C(=O)O)C(C)C [zirconium-89 labelled],,ex vivo gamma counting,"male Sprague-Dawley rats, intestine","intravenous, 1 nmol, 24 h",,tissue uptake,0.412 %ID/g
NC(=NCc1ccccc1)NC(=O)c1nc(Cl)c(N)nc1N,Plasmodium falciparum,,GB4,,,IC50,3.16 µM
Cc1ccccc1C(=O)NN=Cc1ccc(O)c(Br)c1,,,"normal C3H/HeN mouse, plasma","intraperitoneal, 1.6 mg/kg",,AUC(0-t),175 ng·h/mL
CO[C@H]1C[C@@H]2CC[C@@H](C)[C@@](O)(O2)C(=O)C(=O)N2CCCC[C@H]2C(=O)O[C@H]([C@H](C)C[C@@H]2CC[C@@H](OC(=O)NCCOCCOCCOCCOCCOCCOCCOCCOCCC(=O)N3CCc4cc(Cn5nc(-c6ccc7oc(N)nc7c6)c6c(N)ncnc65)ccc4C3)[C@H](OC)C2)C[C@@H](O)[C@H](C)/C=C(\C)[C@@H](O)[C@@H](OC)C(=O)[C@H](C)C[C@H](C)/C=C/C=C/C=C/1C,,,patients with advanced solid tumours,"intravenous, dose not given, grade ≥3",,incidence of Headache TRAE,0%
NC(=O)[C@H]1CCN(c2ncnc(N)c2F)C[C@@H]1N1CCC[C@@H](Nc2cc(Cl)cc(C(F)(F)F)c2)C1=O,,,B-cell malignancy patients,"oral, 82 mg twice daily, dose",,grade ≥3 bilirubin increase,0%
CCOc1cc(Oc2ccc(C(F)(F)F)cc2Cl)ccc1[N+](=O)[O-],,,rat male,"7.5 mg/kg, 8 days",,final body weight,172 ± 4.69 g
O=C1Nc2cc3[nH]nc(-c4ccncc4)c3cc2CN1Cc1ccccc1,,refers to: blurred vision,patients with advanced solid tumours,"intravenous, dose not given, both schedules pooled",,patients with TEAE,32%
Clc1nc[n]([Au][PH](c2ccccc2)(c2ccccc2)c2ccccc2)c1Cl,,,"NCG mouse, plasma","intraperitoneal, 10 mg/kg",,Vz/F,0.538 L/kg
CCc1ccc(CC/C=C/c2ccc3c(c2)C(=O)CC3)cc1,,,"Sprague-Dawley rat, female, serum","oral, 30 mg/kg/day, 14 days",,chloride,106 mM

# A few entries again:
Compound,target or system,assay,system,setting,how to read,quantity,result
CC[C@H](C)[C@H](NC(=O)[C@H](Cc1ccccc1)NC(=O)[C@H](CCC(=O)O)NC(=O)[C@H](CCCNC(=N)N)NC(=O)[C@H](C)NC(=O)[C@H](C)NC(=O)[C@H](CCC(N)=O)NC(=O)[C@H](CCC(=O)O)NC(=O)[C@H](CCC(=O)O)NC(=O)[C@H](CC(C)C)NC(=O)[C@H](Cc1ccc(O)cc1)NC(=O)[C@H](CO)NC(=O)[C@H](CO)NC(=O)[C@@H](NC(=O)[C@H](CC(=O)O)NC(=O)[C@H](CO)NC(=O)[C@@H](NC(=O)[C@H](Cc1ccccc1)NC(=O)[C@@H](NC(=O)CNC(=O)[C@H](CCC(=O)O)NC(=O)[C@H](C)NC(=O)CCc1cnc[nH]1)[C@@H](C)O)[C@@H](C)O)C(C)C)C(=O)N[C@@H](C)C(=O)N[C@@H](Cc1c[nH]c2ccccc12)C(=O)N[C@@H](CC(C)C)C(=O)N[C@H](C(=O)N[C@@H](CCCNC(=N)N)C(=O)NCC(=O)N[C@@H](CCCNC(=N)N)C(=O)N[C@@H](CCCCNC(=O)COCCOCCNC(=O)COCCOCCNC(=O)CC[C@H](NC(=O)CCCCCCCCCCCCCCCCC(=O)O)C(=O)O)C(=O)NCC(=O)NCC(=O)N[C@@H](CO)C(=O)N[C@@H](CCCCNC(=O)[C@H](CCCCNC(=O)[C@H](CCCCNc1c(NCCCCCN(O)C(=O)CCC(=O)NCCCCCN(O)C(=O)CCC(=O)NCCCCCN(O)C(C)=O)c(=O)c1=O)Nc1c(NCCCCCN(O)C(=O)CCC(=O)NCCCCCN(O)C(=O)CCC(=O)NCCCCCN(O)C(C)=O)c(=O)c1=O)NC(=O)[C@H](CCCCNc1c(NCCCCCN(O)C(=O)CCC(=O)NCCCCCN(O)C(=O)CCC(=O)NCCCCCN(O)C(C)=O)c(=O)c1=O)Nc1c(NCCCCCN(O)C(=O)CCC(=O)NCCCCCN(O)C(=O)CCC(=O)NCCCCCN(O)C(C)=O)c(=O)c1=O)C(=O)O)C(C)C [zirconium-89 labelled],,ex vivo gamma counting,"male Sprague-Dawley rats, intestine","intravenous, 1 nmol, 24 h",,tissue uptake,0.412 %ID/g
NC(=NCc1ccccc1)NC(=O)c1nc(Cl)c(N)nc1N,Plasmodium falciparum,,GB4,,,IC50,3.16 µM
Cc1ccccc1C(=O)NN=Cc1ccc(O)c(Br)c1,,,"normal C3H/HeN mouse, plasma","intraperitoneal, 1.6 mg/kg",,AUC(0-t),175 ng·h/mL
CO[C@H]1C[C@@H]2CC[C@@H](C)[C@@](O)(O2)C(=O)C(=O)N2CCCC[C@H]2C(=O)O[C@H]([C@H](C)C[C@@H]2CC[C@@H](OC(=O)NCCOCCOCCOCCOCCOCCOCCOCCOCCC(=O)N3CCc4cc(Cn5nc(-c6ccc7oc(N)nc7c6)c6c(N)ncnc65)ccc4C3)[C@H](OC)C2)C[C@@H](O)[C@H](C)/C=C(\C)[C@@H](O)[C@@H](OC)C(=O)[C@H](C)C[C@H](C)/C=C/C=C/C=C/1C,,,patients with advanced solid tumours,"intravenous, dose not given, grade ≥3",,incidence of Headache TRAE,0%
NC(=O)[C@H]1CCN(c2ncnc(N)c2F)C[C@@H]1N1CCC[C@@H](Nc2cc(Cl)cc(C(F)(F)F)c2)C1=O,,,B-cell malignancy patients,"oral, 82 mg twice daily, dose",,grade ≥3 bilirubin increase,0%
